Experimental data from different studies.
Parts stem from different laboratories: compare values within a part only. Changes are numbered by the printed parent chain.
Chain of UniProt O15294 (whole entry, looked up): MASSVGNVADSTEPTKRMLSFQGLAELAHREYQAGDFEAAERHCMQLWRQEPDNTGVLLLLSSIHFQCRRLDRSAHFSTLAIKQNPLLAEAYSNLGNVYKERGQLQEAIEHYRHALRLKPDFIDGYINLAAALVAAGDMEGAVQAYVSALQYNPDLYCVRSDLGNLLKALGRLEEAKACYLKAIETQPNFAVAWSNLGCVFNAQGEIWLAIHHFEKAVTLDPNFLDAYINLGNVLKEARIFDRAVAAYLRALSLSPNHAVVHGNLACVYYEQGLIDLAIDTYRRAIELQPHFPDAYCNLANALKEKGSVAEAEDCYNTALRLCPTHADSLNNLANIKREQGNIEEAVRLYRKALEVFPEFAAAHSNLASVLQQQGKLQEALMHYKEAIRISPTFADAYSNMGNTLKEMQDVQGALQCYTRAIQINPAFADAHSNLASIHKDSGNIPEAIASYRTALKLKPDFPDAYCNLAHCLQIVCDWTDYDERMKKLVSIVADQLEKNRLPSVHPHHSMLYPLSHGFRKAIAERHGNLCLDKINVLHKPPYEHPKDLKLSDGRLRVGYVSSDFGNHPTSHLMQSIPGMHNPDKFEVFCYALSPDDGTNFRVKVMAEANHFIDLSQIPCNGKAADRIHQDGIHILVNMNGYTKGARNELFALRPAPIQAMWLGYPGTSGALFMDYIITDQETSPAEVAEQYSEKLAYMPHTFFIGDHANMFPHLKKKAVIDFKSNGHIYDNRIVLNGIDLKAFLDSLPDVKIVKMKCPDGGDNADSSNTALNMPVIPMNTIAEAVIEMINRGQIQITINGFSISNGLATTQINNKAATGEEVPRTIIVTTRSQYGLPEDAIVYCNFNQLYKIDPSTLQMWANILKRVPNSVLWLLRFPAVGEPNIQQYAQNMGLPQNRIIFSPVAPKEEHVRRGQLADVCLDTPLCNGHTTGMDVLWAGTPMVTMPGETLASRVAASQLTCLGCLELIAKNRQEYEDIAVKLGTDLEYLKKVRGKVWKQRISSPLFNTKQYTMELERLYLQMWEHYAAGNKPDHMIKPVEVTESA

Block 1 — technique: protein-binding microarray; molecule type: double-stranded DNA, one strand shown; matrix: in vitro; concentration: not given; direction: higher = stronger binding
Target: Transcriptional repressor CTCF (CTCF, Homo sapiens, UniProt P49711, residues 1-727, full length assumed)
Chain of UniProt P49711 (whole entry, looked up): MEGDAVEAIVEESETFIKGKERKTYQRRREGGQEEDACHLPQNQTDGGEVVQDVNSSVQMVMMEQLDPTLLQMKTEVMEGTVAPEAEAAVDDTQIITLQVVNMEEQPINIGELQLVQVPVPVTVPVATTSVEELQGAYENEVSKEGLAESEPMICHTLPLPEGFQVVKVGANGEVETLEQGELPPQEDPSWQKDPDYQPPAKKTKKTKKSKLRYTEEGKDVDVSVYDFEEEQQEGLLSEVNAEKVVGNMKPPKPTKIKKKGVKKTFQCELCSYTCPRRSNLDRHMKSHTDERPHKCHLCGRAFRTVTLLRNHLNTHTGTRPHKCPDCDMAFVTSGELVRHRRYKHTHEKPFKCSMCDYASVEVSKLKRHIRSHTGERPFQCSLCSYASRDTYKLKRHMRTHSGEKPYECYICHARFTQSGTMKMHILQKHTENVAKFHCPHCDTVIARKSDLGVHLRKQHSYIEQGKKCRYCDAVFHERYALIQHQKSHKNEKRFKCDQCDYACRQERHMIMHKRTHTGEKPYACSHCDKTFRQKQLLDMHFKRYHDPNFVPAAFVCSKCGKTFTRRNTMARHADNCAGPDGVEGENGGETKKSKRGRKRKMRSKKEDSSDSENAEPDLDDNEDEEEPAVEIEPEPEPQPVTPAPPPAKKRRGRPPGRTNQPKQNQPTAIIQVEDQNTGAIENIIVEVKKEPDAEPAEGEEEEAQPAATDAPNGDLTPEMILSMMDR
Notes: k-mer, scored over probes, only values ≥0.25
Oligonucleotide | E-score
GATAATTA | 0.289
ATAACACA | 0.325
TGCGCACA | 0.422
TATGCATA | 0.327
ATATAATA | 0.366
AACAGAAA | 0.262
CAAAAAAA | 0.288
AATTGCAC | 0.265

Block 2 — technique: protein-binding microarray; molecule type: double-stranded DNA, one strand shown; matrix: in vitro; concentration: 0.8 µM; notes: whole 60-bp probe, no competitor; direction: higher = stronger binding
Target: Centromere-binding protein 1, full length, N-terminal tag (CBF1, Saccharomyces cerevisiae, UniProt P17106, residues 1-351)
Chain of UniProt P17106 (whole entry, looked up): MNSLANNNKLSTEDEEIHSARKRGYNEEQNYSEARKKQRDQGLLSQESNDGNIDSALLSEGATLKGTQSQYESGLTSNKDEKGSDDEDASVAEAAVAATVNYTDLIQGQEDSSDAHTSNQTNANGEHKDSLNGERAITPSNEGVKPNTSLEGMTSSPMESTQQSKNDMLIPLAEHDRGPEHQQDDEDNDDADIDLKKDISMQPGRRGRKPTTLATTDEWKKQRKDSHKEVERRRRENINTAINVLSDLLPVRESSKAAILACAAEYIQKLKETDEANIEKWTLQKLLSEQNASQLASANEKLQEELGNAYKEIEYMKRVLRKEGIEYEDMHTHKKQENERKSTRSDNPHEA
Oligonucleotide | fluorescence intensity [a.u.]
CTAGCGAGTATTCATCACCTAAGCGTCCTGTAGTTCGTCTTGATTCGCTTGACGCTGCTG | 526
TGTACGAAGCTATATTACATCATTATAGTAGTTAGGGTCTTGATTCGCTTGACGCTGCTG | 530
CTATTCGTCCGACGTGATCTGGAAAATACGCGCTTCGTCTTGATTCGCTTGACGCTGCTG | 1010
GAATGCAAAGCGCATCAGATCATTAGGTGTGTCTAGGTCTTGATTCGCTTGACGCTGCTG | 506
CTATGAATTCTTATACATGTGACTAACCGATATTTCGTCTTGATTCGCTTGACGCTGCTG | 4180
GAATCGTTCTGCGAGAGCGTGTCTAAAGATAAGTAGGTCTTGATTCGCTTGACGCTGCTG | 564
GAATGGAAAGTGTGGCATGTGCTTCACACAATATAGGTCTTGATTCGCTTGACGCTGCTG | 710
CTACAGCTTTGCCAACACGCGCCGTCGGAAGGTTTCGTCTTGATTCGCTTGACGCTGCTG | 517

Single results of other studies
P1: viral docking peptide; PGASRRLFGSSAD; partner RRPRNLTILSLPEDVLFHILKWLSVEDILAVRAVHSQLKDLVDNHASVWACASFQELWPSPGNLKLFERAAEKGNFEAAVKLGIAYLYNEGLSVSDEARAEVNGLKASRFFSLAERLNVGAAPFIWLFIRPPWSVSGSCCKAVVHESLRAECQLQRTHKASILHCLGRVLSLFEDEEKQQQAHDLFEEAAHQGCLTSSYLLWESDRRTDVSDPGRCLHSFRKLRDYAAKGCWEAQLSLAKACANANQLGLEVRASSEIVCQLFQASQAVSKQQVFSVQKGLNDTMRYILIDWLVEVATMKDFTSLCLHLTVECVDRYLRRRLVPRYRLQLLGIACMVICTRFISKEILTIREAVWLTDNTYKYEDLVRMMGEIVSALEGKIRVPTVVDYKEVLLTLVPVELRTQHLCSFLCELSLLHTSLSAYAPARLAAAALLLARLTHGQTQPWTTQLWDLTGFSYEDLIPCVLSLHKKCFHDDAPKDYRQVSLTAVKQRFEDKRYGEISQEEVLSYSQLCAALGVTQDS
Molecule | target | assay | test system | conditions | how to read | measurement | result
DSYHHPVKKTTHTH | UDP-N-acetylglucosamine--peptide N-acetylglucosaminyltransferase 110 kDa subunit (OGT, Homo sapiens, UniProt O15294) | binding, phage display NGS | peptide | panning round 2 | reference: input library | minimum log2 enrichment ratio | 1.58
P1 R5K F8L | CCNF, cyclin fold, Cln2 fusion (human) | yeast growth competition, sequencing | yeast | strong parent motif | reference: not given, higher = stronger binding | normalised enrichment score | 0.793

Some of these lines once more (block 1):
Oligonucleotide | E-score
ATATAATA | 0.366
AACAGAAA | 0.262
